Measurements collected from several papers.
Parts stem from different laboratories: compare values within a part only.

Sample 1 — technique: protein-binding microarray; form: double-stranded DNA, one strand shown; sample: in vitro; tested at: not given; direction: higher = stronger binding
Target: Protein C-ets-1 (ETS1, Homo sapiens, UniProt P14921, residues 1-441, K379A, full length assumed)
Notes: k-mer, scored over probes, only values ≥0.25
Target sequence (chain): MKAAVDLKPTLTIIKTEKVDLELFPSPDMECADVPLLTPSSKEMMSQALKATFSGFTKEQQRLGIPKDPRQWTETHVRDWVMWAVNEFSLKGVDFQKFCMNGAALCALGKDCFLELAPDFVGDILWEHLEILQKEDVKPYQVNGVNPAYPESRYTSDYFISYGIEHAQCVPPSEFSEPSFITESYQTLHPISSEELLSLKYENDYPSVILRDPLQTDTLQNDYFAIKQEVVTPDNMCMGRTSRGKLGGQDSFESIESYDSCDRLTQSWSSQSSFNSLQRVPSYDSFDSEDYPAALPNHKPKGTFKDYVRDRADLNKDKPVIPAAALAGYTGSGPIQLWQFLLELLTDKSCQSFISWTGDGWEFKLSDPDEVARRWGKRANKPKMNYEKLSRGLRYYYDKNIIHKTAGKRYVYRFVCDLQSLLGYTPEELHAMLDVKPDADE
Oligonucleotide | E-score
CCACCGGA | 0.375
CGCCGGTA | 0.432
ACTAATCA | 0.273
TACCGGTA | 0.475
GTGTGTAA | 0.263
TGGTAACA | 0.251
ATATAGTC | 0.257
CAACCGGC | 0.338
CCGGTAAG | 0.422
GACCGTAC | 0.255
GCCGGAAA | 0.406
CCCCGCCC | 0.367
GTCCCGGA | 0.261
CGGTACTA | 0.346
AGGTACCG | 0.352
ATACTGTA | 0.252
CGGTTATC | 0.283

Sample 2 — technique: RNA Bind-n-Seq; form: RNA; sample: in vitro; tested at: 365 nM; reference: no-protein control; direction: higher = stronger binding
Target: RNA binding protein fox-1 homolog 2, RRM domain, GST-SBP tag (RBFOX2, Homo sapiens, UniProt O43251-10, residues 100-194)
Notes: natural RNA segment, single round, ends assumed
Construct (chain): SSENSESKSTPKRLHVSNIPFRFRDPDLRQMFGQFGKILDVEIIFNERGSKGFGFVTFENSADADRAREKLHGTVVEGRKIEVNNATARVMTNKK
Oligonucleotide | RBNS enrichment (R)
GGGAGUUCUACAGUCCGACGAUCGGAGAUCACAGCCCUGACCAAUAGGCCCAGCGGUCCACACACACUUCACUAUUUGGUUUAAUGUCAGGUCUGCUGGGGGUAAUGGUGGCCAAGAUCUCAAACUAGGGCUUUGGAAUUCUCGGGUGCCAA | 0.212
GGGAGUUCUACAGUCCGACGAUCUGUGCUGGGGCCCUGCAAUUGGAAUGUUGGCCAGAUUUCUGCAAUAAACACUUGUGGUUUGCGGCCAUCUCCUUGGUUAUGAAUGGCUGUUUCGCUGAGCGCCAGGCAUUUGGAAUUCUCGGGUGCCAA | 0.339
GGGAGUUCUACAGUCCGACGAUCUACUAGGAGUGAGACCAGCUUCUGGCAACUGCCCCAGCUCCAGGCCAUCCCAUAGCCCCUCCUCUUCUGGCUGCCCCCAAUGCCCCGAGGCCUGGGGAGCCCCCAGCUCAUGGAAUUCUCGGGUGCCAA | 0.257
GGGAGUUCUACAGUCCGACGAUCCUAGUAACUGCCUCUGGACUCGGAACAGUGAGUAGGAUCAAAAUAAAUACUGUACAUGGUGGGGAAUGGAAUGCCUGUUGGAGAAGCUUCUAGCCAAUCACGCUCUGGACUGGAAUUCUCGGGUGCCAA | 1.17
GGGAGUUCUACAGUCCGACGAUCUCAGUUUAUGUUUUGGUCCACUUUUCCAGUAUUUUAGUGGACCCUGAAAUGUGUGUGAUGUGACAUUUGUCAUUUUCAUUAGCAAAAAAAGUUGUAUGAUCUGUGCCUUUUGGAAUUCUCGGGUGCCAA | 0.279
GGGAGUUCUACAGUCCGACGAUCAACAUUUCCCGGGGGUGGUUUUGAACCUGCUUGGGUGGUUGUGUGGUGCUGACGCUGCCACUGCCCUGUUGUUCAUUGAGAAUGAUUGUUAAAUGACACUCUUCCUUUAGUGGAAUUCUCGGGUGCCAA | 0.254
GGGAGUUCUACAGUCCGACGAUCUUGGAUACAUAAGAAAUGAGAAUUCCUGGUUCAUGGGCCAACCUAGGACUCUGGAGUAUGCAGACUUGGCCAUUCGUCCAUUGUGGCCUGCGGGUCGCACCCCAGGCAUAUGGAAUUCUCGGGUGCCAA | 0.739
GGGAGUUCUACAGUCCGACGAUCUGAAAAAUCUAUAUUUAUUAAAGGUAGUAGACAUUUGAAUAUAGUAAUCAAAUUAACUGAUUUUGUUUUCACCCUAAAUACAUACAACCAUUCCUCCACUUUCAUAAAUUUGGAAUUCUCGGGUGCCAA | 0.899
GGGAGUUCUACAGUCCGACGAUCCUAUCACUUGAGAACCUCCUCAGCAAAGAUGCCAGAAAACAUUCAAUCAAGUUGGCAAAUGACACAGGGAGCUGGCCCUCUGACCAUCUUCCUGGCAAACCUGGACUGGAUGGAAUUCUCGGGUGCCAA | 0.221
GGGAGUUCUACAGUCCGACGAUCACUGAGCCCUGAACCCCAACCCUGCGGCCGGUGACUCUCCCCAACCCCCAUAUGCCCAGUCUUGCUUGAAGUAGCACAGACCCUGUGUGGGUUUGGCCCCUAGCUCCCACUGGAAUUCUCGGGUGCCAA | 0.398
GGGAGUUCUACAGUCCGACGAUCACCACUGGAGGGCUUUGCUCCAGAAUGCAGACCGCUCUGCCAAGGCCUCCAUGUCUGCUUGCAUCUAGCUUGCACAAAGAUAGAUCUUUGUGGUGAGAUCAUCUGUGUGGUGGAAUUCUCGGGUGCCAA | 1.16
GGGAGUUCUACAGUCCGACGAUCUUAACACCAGUAACCGAUUUUAGGACCUUGAGCAAGUUAAAUAACUUCUUCCUGCCUUGGUUUCCCCGUCAGAAAUGGGGAACAGUGGUAGCUACCUCAUAACUUGUAAAUGGAAUUCUCGGGUGCCAA | 0.24

Sample 3 — technique: aptamer microarray, sandwich; form: DNA with 2'F-ANA; sample: in vitro; tested at: 200 nM; with: Cy3 exosite-II aptamer, 400 nM; direction: higher = stronger binding; oligonucleotide: GGTTGGTGTGGTTGG
Target: Prothrombin, mature alpha-thrombin (F2, Homo sapiens, UniProt P00734)
Notes: whole 15-mer aptamer, many near background
Modification | mean fluorescence intensity [a.u.]
2'F-ANA at 1 6 7 9 14 15 | 58.4
2'F-ANA at 1 2 4 5 7 8 9 12 13 | 74.7
2'F-ANA at 1 3 6 12 14 | 108
2'F-ANA at 3 4 8 9 10 12 | 362
2'F-ANA at 1 4 6 10 11 13 14 | 45.4
2'F-ANA at 1 4 5 6 7 12 14 15 | 49.1
2'F-ANA at 1 4 5 6 7 11 12 13 14 15 | 55.8
2'F-ANA at 2 3 4 8 12 | 1070
2'F-ANA at 1 3 4 6 7 8 9 10 11 12 13 15 | 81.6
2'F-ANA at 1 2 3 4 5 9 10 11 12 13 14 | 44
2'F-ANA at 1 2 11 13 14 | 50.5
2'F-ANA at 1 3 5 6 7 8 9 11 14 | 61.4
2'F-ANA at 1 2 4 8 12 14 | 65.7
2'F-ANA at 1 3 4 7 9 12 13 15 | 284
2'F-ANA at 1 2 6 8 9 12 13 | 257
2'F-ANA at 1 2 5 6 8 10 11 12 | 61.2
2'F-ANA at 1 2 3 4 5 6 7 8 10 11 | 55
2'F-ANA at 2 3 4 5 7 10 | 73
2'F-ANA at 3 5 9 12 | 292
2'F-ANA at 1 2 3 6 8 9 10 12 13 15 | 77.5
2'F-ANA at 3 4 6 8 14 | 318
2'F-ANA at 3 5 6 9 10 11 | 61.3
2'F-ANA at 1 3 4 5 7 8 9 10 11 12 14 | 47.8
2'F-ANA at 2 3 4 7 8 9 11 13 | 497
2'F-ANA at 4 6 7 8 9 12 | 536

Sample 4 — technique: RNA Bind-n-Seq; form: RNA; sample: in vitro; tested at: 1 µM; notes: whole 134-nt RNA, ends assumed; with: 150 mM KCl; reference: input library; direction: higher = stronger binding
Target: Ras GTPase-activating protein-binding protein 1, C-terminal RGG region (G3BP1, Homo sapiens, UniProt Q13283)
Sequence of UniProt Q13283 (whole entry, looked up): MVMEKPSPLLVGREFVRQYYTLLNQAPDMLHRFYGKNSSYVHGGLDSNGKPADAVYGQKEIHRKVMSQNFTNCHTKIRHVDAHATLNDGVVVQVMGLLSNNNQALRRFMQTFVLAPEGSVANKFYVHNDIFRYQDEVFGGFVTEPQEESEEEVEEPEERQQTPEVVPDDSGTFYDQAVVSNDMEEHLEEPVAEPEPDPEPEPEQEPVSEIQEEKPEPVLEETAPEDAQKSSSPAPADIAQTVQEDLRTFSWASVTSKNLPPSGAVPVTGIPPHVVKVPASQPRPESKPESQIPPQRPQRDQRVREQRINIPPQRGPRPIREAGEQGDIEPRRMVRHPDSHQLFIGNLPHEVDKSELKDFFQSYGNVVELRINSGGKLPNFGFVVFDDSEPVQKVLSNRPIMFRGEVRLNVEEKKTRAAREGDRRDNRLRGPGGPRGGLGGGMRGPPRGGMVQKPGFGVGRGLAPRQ
Oligonucleotide | log2 enrichment
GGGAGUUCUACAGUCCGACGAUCUCAAGUCCUGUGCUACACAUCGUAUGUACCGAAUCGGUUUGGAAAAAAAGGAGGAAAGUAUUAUGUUACGCCGUUCGGAUCUGCACUUCCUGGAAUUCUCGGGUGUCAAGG | -1.33
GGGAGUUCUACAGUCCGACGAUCAGUCCUGUGCUACACAUCGUAUGUACCGAAUCAAACCCAAACCCAAAUUUUUUUAAAAAAGUAUUAUGUUACGCCGUUCGGAUCUGCACUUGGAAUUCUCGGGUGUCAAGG | -1.05
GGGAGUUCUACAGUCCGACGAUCUCAAGUCCUGUGCUACACAUCGUAUGUACCGAAUCGGGUUUGGGUUUGGGAGGGAAAGUAUUAUGUUACGCCGUUCGGAUCUGCACUUCCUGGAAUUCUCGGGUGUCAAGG | 1.9
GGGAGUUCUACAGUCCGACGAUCUCAAGUCCUGUGCUACACAUCGUAUGUACCGAAUCGGGUGGGAGGGAAAAAGGGAAAGUAUUAUGUUACGCCGUUCGGAUCUGCACUUCCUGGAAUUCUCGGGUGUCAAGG | 1.32
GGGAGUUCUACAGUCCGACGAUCAGUCCUGUGCUACACAUCGUAUGUACCGAAUCGGGUUUUUUUGGGAAAAAGGGUGGGAAAGUAUUAUGUUACGCCGUUCGGAUCUGCACUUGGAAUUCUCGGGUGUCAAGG | 1.14
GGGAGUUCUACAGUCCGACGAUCGCAGGAAGUAAAAACAACUGGAAAUGCUUCGGAUAGUGGCAGGGGUGGGGGUUGCUAAGGAAAGGGUGGGAUGGGAGUGGGUAAAGAGUUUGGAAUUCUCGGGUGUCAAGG | 1.77
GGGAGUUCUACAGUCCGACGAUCGCAGGAGGUAAAAACAAAUGGAAAUGCUUCGGAUAGUGGCAGGGGUGGGGGUUGCUAAGGAAAGGGUGGGAUGGGAGUGGGUAAAGAGUUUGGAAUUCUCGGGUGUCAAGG | 1.76
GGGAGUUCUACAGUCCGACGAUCUUGAGAAGAAGCAAAAAGAGAUGGAUGAAGCUGCUACGGUGAGAGAAAACCCACUAUCGAUUCCACUCACCACUUACCUCCUUCCCUUACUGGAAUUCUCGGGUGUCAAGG | -0.72
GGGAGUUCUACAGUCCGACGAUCUGGCCCUGGUGGCAUGCGGGGAGGAACAGGUGGCCUCAUGGAUCGUGGUGGUCCCGGUGGAAUGUUCAGAGGUGGCCGUGGUGGAGACAGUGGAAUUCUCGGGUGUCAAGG | 1.76
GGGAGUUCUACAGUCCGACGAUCUGGCCCUGGUGGCAUGCGGGGAGGAAGAGGUGGCCUCAUGGGUCGUGGUGGUCCCGGUGGAAUGUUCAGAGGUGGCCGUGGUGGAGACAGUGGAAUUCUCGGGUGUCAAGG | 1.91

For quick reference, copied from above (sample 2):
Oligonucleotide | RBNS enrichment (R)
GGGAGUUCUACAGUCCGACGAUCUGUGCUGGGGCCCUGCAAUUGGAAUGUUGGCCAGAUUUCUGCAAUAAACACUUGUGGUUUGCGGCCAUCUCCUUGGUUAUGAAUGGCUGUUUCGCUGAGCGCCAGGCAUUUGGAAUUCUCGGGUGCCAA | 0.339
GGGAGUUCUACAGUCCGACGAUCUACUAGGAGUGAGACCAGCUUCUGGCAACUGCCCCAGCUCCAGGCCAUCCCAUAGCCCCUCCUCUUCUGGCUGCCCCCAAUGCCCCGAGGCCUGGGGAGCCCCCAGCUCAUGGAAUUCUCGGGUGCCAA | 0.257
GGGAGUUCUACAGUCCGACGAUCCUAGUAACUGCCUCUGGACUCGGAACAGUGAGUAGGAUCAAAAUAAAUACUGUACAUGGUGGGGAAUGGAAUGCCUGUUGGAGAAGCUUCUAGCCAAUCACGCUCUGGACUGGAAUUCUCGGGUGCCAA | 1.17
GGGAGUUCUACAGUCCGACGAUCUCAGUUUAUGUUUUGGUCCACUUUUCCAGUAUUUUAGUGGACCCUGAAAUGUGUGUGAUGUGACAUUUGUCAUUUUCAUUAGCAAAAAAAGUUGUAUGAUCUGUGCCUUUUGGAAUUCUCGGGUGCCAA | 0.279
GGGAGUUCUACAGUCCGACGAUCAACAUUUCCCGGGGGUGGUUUUGAACCUGCUUGGGUGGUUGUGUGGUGCUGACGCUGCCACUGCCCUGUUGUUCAUUGAGAAUGAUUGUUAAAUGACACUCUUCCUUUAGUGGAAUUCUCGGGUGCCAA | 0.254
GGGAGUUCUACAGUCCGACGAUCUUGGAUACAUAAGAAAUGAGAAUUCCUGGUUCAUGGGCCAACCUAGGACUCUGGAGUAUGCAGACUUGGCCAUUCGUCCAUUGUGGCCUGCGGGUCGCACCCCAGGCAUAUGGAAUUCUCGGGUGCCAA | 0.739
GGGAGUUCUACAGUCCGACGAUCUGAAAAAUCUAUAUUUAUUAAAGGUAGUAGACAUUUGAAUAUAGUAAUCAAAUUAACUGAUUUUGUUUUCACCCUAAAUACAUACAACCAUUCCUCCACUUUCAUAAAUUUGGAAUUCUCGGGUGCCAA | 0.899
